Experimental data from different studies.
A part holds a random share of what one study measured. Changes are numbered by the printed parent chain.

Block 1
Target: CCNB2, cyclin fold, Cln2 fusion (human)
Method: yeast growth competition, sequencing
Medium: yeast
Notes: weak parent motif
Reference: not given
Reading: higher = stronger binding
Starting sequence: RB1 docking peptide (human); PKPLKKLRFDIEG; partner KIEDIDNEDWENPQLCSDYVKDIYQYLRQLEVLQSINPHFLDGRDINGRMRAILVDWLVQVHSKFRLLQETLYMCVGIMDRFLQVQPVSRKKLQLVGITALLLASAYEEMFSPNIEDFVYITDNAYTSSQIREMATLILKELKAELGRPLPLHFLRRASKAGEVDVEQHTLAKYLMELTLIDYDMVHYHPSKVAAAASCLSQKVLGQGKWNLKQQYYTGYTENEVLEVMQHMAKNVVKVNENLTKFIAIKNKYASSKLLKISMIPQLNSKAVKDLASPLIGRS
Change | normalised enrichment score
G13I | 0.56
G13W | 0.233
P1A | 0.432
F9T | 0.156
G13V | 0.203
P3D | 0.656
E12T | 0.517
L4V | 0.485
K6H | 0.613
L7W | 0.522
L7H | 0.0876
D10Y | 0.36
F9I | -0.08
L7P | 0.293
K2Y | 0.665
P1V | 0.2
G13C | 0.748
D10F | 0.256
P1I | 0.247
K2M | 0.27
G13K | 0.655
D10K | 0.0505
D10Q | 0.214

Block 2
Target: ABI1, truncated, D143A, DHFR fusion (Arabidopsis thaliana)
Method: DHFR PCA, deep sequencing
Medium: yeast
Notes: methotrexate growth selection, single substitutions
Together with: (+)-ABA 0 µM
Reference: wild-type fitted maximum
Reading: higher = stronger binding
Starting sequence: PYL1, truncated, DHFR fusion (Arabidopsis thaliana); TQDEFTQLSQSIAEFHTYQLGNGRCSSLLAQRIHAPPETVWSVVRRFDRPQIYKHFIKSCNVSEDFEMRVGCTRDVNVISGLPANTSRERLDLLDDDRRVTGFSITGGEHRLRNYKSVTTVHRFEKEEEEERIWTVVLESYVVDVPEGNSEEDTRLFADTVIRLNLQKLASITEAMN
Change | relative binding score
T39F | 4.44%
R90N | -1.86%
R24T | 15.7%
G71N | -1.1%
L8Y | 14.6%
V44F | -5.81%
R155P | 3.36%
D65V | -3.97%
Y115P | 4.71%
H122W | -8.03%
V142Q | 6.08%
P146F | -7.56%
Y141C | 4.57%
L112N | 1.76%
G102D | -5.58%
E147C | 5.05%
V118N | -4.12%
I52Y | 3.47%
D3W | 21.9%
T120E | -2.08%

Block 3
Target: RING finger protein unkempt homolog, zinc fingers 1-6, GST-SBP tag (UNK, Homo sapiens, UniProt Q9C0B0, residues 30-357)
UniProt Q9C0B0, sequence (30-357, looked up): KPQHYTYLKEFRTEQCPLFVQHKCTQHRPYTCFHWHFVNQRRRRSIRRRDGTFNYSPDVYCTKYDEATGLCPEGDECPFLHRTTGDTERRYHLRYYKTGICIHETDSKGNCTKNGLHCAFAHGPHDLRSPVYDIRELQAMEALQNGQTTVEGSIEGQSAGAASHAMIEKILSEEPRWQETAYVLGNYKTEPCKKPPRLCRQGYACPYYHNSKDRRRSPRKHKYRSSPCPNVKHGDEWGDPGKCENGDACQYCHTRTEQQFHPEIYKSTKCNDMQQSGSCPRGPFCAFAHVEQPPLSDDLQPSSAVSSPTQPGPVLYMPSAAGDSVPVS
Method: RNA Bind-n-Seq
Molecule type: RNA
Medium: in vitro
Tested at: not given
Notes: RNA with constant flanks, ends assumed
Reference: input RNA pool
Reading: higher = stronger binding
Shared flanks, not repeated: GGGAGUUCUACAGUCCGACGAUC … CAACAGAGGAUUGAGCAUCA
Oligonucleotide | bound/input enrichment [ratio]
AAGUCAGCAGCACAAGCCAGACGCCGGCUGAUGAGUGGAAAAGUAAAAGUGUGGGGAAAUGCCGUUACAGUUGAAUGGGCUGACCCUGUGGAAGAACCAGAUCCAGAAGUCAUGGCUAAG | 0.225
UCCCAGACUCCAACUCCCAGUUCUACUUUCUUCCAGGCAGAGCUGUGGAUCAAAGAAUUAACCCGUGUUUAUGAUUCUCGAGCACGAGAAAGAUUGCGCCAGAUUGAAGAACAGAAGGCA | 0.389
CAGAUCCAUAGGGAUUUGAAAGCUGGAAAUAUUCUUCUGGGUGAGGAUGGCUCAGUACAAACCGCAGAUUUUGGAGUAAGCGCAUUCUUAGCCACAGGGGGUGAUGUUACACGGAAUAAA | 0.232
UACAACAUGGCUUCUGUCGACUUUGAUGGCUUCUUUGCAGCCUUUCUUCCAGAGUUCCUGACCCGCUGUGAUGGUGUGGAUGCCAAUCAGAAAAACGUUCUGGGGCGGAAUUUCAAGAUG | 0.163
CGUGAUGAGGAAGUAAGCUCUGCUGAUAUAAGUAGUUCAUCUGAGGUAAUAUCACAGCAUCCCGUAUCUUACAGAAAUAUUGAAGAGCUUCAACAACAAAAUCAACGUCUCUUAGUGGCC | 0.229
UCUGAUGUCUCCCAGAUGAAUGAUAGACUGGGAGAAGAUGAAUCCUUGCUAAUGAAAUUAUACCGCUUCCUCCUAAACGAUUCCCCUUUGAAUCCACUACUUGCCAGUUUCUUCAGCAAG | 0.206
UAUUCACAACUUGGAACAUUUGCACCAAUGUGGGAUGUAUUCAAAACAUCUACAGAGAAAUCCGCAAAUUGUCAUUUGGAUCUUGUUAGAAAAUUACAGGAAUUAAUAAAGGAAGUUCAG | 1.87
AUAACUACUCCUGCCAUGGCCGUCAGCCAUAUCAUGUUGGAAUCAUAUAAAAAGUAUAUUCCCGUGUCUUUGAUAUUACUUGGCAAAGUACAACAGCUGCCUAAAUACACCUCUCAAAUA | 0.197
UUACAACUCAGAUUUUAUUUAUUUUGAAAUUAUCAAUUGUAUAAAUCUAAUUUAUUACCAAACCGGGUCUUUUAAAAAAUAUUUUUAUCGUUGAAACCUUGACAGGUACUUCAUAUUCUU | 1.47
GGAGCAUUAAUUGCUUCUCUUAUCAACUGCUACAUCAGAGACAACGCCGCCGUAGACGGCAUCCGCUUACAUCUGCAGGACACCUGUCCGCUUCUGUAUAGCACAGACGAUGCAGUUUGU | 0.126
UUUGGUAAUGAAUAAAUUCUGCUAGUGGUAUAUGUUGAUCUGAACUUACAAUGAUGGGAUACCGAAUUGGCAGAGUGGCAGAUGUUCACAAUUGUCUACAAGUAGAUGUGCUAGACAAUG | 0.41

Block 4
Target: JDP2, bZIP domain (human)
Method: DHFR protein complementation
Medium: yeast
Notes: single substitutions, most at no-binding floor
Reference: wild-type JUN-FOS pair
Reading: higher = stronger binding
Starting sequence: JUN, bZIP domain (human); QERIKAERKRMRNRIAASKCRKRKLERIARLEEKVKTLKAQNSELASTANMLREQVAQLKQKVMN; partner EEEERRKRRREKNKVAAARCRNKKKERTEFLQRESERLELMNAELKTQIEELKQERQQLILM
Change | binding fitness [natural log]
I28C | 0.194
L38Q | 0.268
Q41R | 0.262
E54P | -0.531
R53A | 0.33
T37N | 0.375
R53G | 0.231
K34V | 0.274
Q55S | 0.292
R30A | 0.397
E44P | -0.305
S47Q | 0.258
K39I | 0.228
A57W | 0.221
V56N | 0.21

Block 5
Target: Sal-like protein 4, full length isoform B (SALL4, Homo sapiens, UniProt Q9UJQ4-2, residues 1-616)
Method: universal PBM
Molecule type: double-stranded DNA, one strand shown
Medium: in vitro
Tested at: not given
Notes: 8-mer, flanks averaged, mean of replicates
Reading: higher = stronger binding
Residues (chain): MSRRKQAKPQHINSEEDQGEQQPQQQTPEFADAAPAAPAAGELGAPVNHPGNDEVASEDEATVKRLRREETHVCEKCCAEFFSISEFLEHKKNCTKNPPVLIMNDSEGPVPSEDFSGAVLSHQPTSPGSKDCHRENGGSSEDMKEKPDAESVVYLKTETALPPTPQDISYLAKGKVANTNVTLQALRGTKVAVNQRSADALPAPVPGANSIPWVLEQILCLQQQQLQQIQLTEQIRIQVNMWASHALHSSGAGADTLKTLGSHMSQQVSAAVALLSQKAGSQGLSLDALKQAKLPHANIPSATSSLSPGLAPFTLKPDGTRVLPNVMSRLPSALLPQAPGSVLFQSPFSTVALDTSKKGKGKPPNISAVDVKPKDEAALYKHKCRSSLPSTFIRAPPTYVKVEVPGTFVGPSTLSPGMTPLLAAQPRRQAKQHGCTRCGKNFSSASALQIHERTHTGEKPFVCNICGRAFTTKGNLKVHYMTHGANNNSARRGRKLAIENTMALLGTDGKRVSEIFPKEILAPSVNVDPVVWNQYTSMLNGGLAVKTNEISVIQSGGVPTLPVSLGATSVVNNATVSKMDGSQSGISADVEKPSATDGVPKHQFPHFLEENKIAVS
Oligonucleotide | E-score
GAGGGCTA | -0.141
ACATCCTA | 0.12
CTAACCAG | -0.0406
ATTCATAG | 0.34
GAATTTCC | 0.0571
CCATGTTC | -0.0493
AGCCCGGC | -0.359
AAATGTAC | 0.222
GCCGACAA | -0.179
ACTATCCT | 0.143
AGGACAGC | -0.214
ATCAGAAT | 0.0402
GTCTAGAC | -0.308
TTATAGAA | 0.308
TATCTTGA | 0.145
CCATGGGA | -0.168
CCGATCGA | -0.115
CTAGAGTC | -0.0673
TACATCCA | 0.217
ACCGAGGT | -0.282
AATTGTCG | -0.0341
AGTGCTCG | -0.232

Excerpt of the above (block 1):
Change | normalised enrichment score
G13W | 0.233
P1A | 0.432
F9T | 0.156
G13V | 0.203
P3D | 0.656
E12T | 0.517
L4V | 0.485
